Published values collected from several papers.
Protocols differ between the studies behind these lines. Numbers after ± are the reported error.

`CC(C)C[C@H](NC(=O)[C@@H](CCCCNC(=O)[C@@H](Cc1ccccc1)NC(=O)CCCCCCCNC(=O)CN1CCN(CC(=O)O)CCN(CC(=O)O)CCN(CC(=O)O)CC1)NC(=O)[C@H](Cc1ccc(O)cc1)NC(=O)[C@H](CO)NC(=O)[C@H](Cc1c[nH]c2ccccc12)NC(=O)[C@H](Cc1c[nH]cn1)NC(=O)[C@@H]1CCC(=O)N1)C(=O)N[C@@H](CCCNC(=N)N)C(=O)N1CCC[C@H]1C(=O)NCC(N)=O` [indium-111 labelled] gave a tissue uptake of 0.08 ± 0.02 %ID/g (biodistribution; male athymic nude mice, DU-145 prostate cancer xenograft, pancreas; intravenous, 0.037 MBq, 4 h post-injection).
`CCCC[C@H](NC(=O)COCCOCCNC(=O)CN1CCN(CC(=O)O)CCN(CC(=O)O)CC1)C(=O)N[C@H]1CC(=O)NCCCC[C@@H](C(N)=O)NC(=O)[C@H](Cc2c[nH]c3ccccc23)NC(=O)[C@H](CCCNC(=N)N)NC(=O)[C@@H](Cc2ccccc2)NC(=O)[C@H](Cc2c[nH]cn2)NC1=O` [fluorine-18 labelled] gave a tissue uptake of 0.53 ± 0.21 %ID/g (C57 mice B16-F10 melanoma, spleen; intravenous, 0.37 MBq, 0.5 h).
For `COc1ccc(Nc2nc(Nc3ccc(OCCOCC[18F])cc3)ncc2Br)cc1`, the tissue uptake was 3.84 ± 0.63 %ID/g (ICR mice, S180 tumour-bearing, bone; intravenous, 370 kBq, 30 min).
`CCCC[C@H](NC(=O)CNC(=O)CNC(=O)[C@H](CCCCNC(=O)[C@H](CC(=O)O)NC(=O)C(C)c1ccc(CC(C)C)cc1)NC(=O)CN1CCN(CC(=O)O)CCN(CC(=O)O)CCN(CC(=O)O)CC1)C(=O)N[C@H]1CC(=O)NCCCC[C@@H](C(N)=O)NC(=O)[C@H](Cc2c[nH]c3ccccc23)NC(=O)[C@H](CCCNC(=N)N)NC(=O)[C@@H](Cc2ccccc2)NC(=O)[C@H](Cc2c[nH]cn2)NC1=O` (some centres unmarked) [lutetium-177 labelled] gave a tissue uptake of 0.32 ± 0.06 %ID/g (C57 mice, tumour-bearing, brain; intravenous, 0.037 MBq, 0.5 h).
The tissue uptake of `COc1ccc(Nc2nc(Nc3ccc(OCCOCCOCC[18F])cc3)ncc2Br)cc1` is reported as 1.54 ± 0.1 %ID (ICR mice, S180 tumour, stomach; intravenous, 370 kBq, 30 min).
`Cc1cc(C)n(CCN(CCN)CCCCCCNC(=O)[C@@H](N)Cc2c[nH]cn2)n1.[99Tc+].[C-]#[O+].[C-]#[O+].[C-]#[O+]` gave a tissue uptake of 1.1 ± 0.17 %IA/g (BALB/c nude mice, A549 xenograft, intestine; intravenous, 24 h).
With `COc1ccc2c(c1)C(C)(C)C(/C=C/C1=C(Oc3ccc(C(=O)NCCCCOc4cc(CN(Cc5ccccn5)Cc5ccccn5)cc(CN(Cc5ccccn5)Cc5ccccn5)c4)cc3)C(=C/C=C3/N(CCCCS(=O)(=O)[O-])c4ccc(OC)cc4C3(C)C)CCC1)=[N+]2CCCCS(=O)(=O)[O-].O=[N+]([O-])[O-].O=[N+]([O-])[O-].[99Tc+].[C-]#[O+].[C-]#[O+].[C-]#[O+].[Zn+2]` the tissue uptake was 8.22 %ID/g (BALB/c mice, S. aureus myositis, lungs; 12 h post-injection).
`O=C(NCC1OC2CCC=CCCC2O1)c1ccc([18F])nc1` (centres unmarked) has a tissue uptake of 1.4 ± 0.3 %ID/g (healthy female BALB/c nude mice, bone; intravenous, 7.4 MBq per mouse, 2 min).

Some of these lines once more:
For `COc1ccc(Nc2nc(Nc3ccc(OCCOCC[18F])cc3)ncc2Br)cc1`, the tissue uptake was 3.84 ± 0.63 %ID/g (ICR mice, S180 tumour-bearing, bone; intravenous, 370 kBq, 30 min).
